Measurements gathered from unrelated publications.
Protocols differ between the studies behind these lines. “And” joins repeats or separate records; there may be more than shown. Numbers after ± are the reported error.

SMILES | system | setting | Cmax
Cn1c(C(F)(F)F)cc(=O)n(-c2cc(Oc3cccnc3OCC(=O)O)c(Cl)cc2F)c1=O | Crl:CD1(ICR) mice, female, plasma | oral diet, 5 ppm in diet, day 1, 90-day toxicity study | 28.5 ng/mL
CCNc1nc2c(c(N3CC(=O)Nc4cc(OC)ccc43)n1)CCC2 | C57BL/6 mice, female, plasma | intravenous, 4 mg/kg, molar equivalent | ~4600 nM
O=S(=O)(c1ccc(-c2ccc3nccc(Nc4ccncn4)c3c2)cc1)N1CCOCC1 | BALB/c mice female, brain | intraperitoneal, 10 mg/kg | 181 ng/mL
Cc1ncsc1-c1ccc(CNC(=O)[C@@H]2C[C@@H](O)CN2C(=O)[C@@H](NC(=O)CCCCCCCCCCCC(=O)NCCCCC#Cc2cccc(-c3nn(-c4nc(C(=O)O)cs4)c(CC4CC4)c3Cc3ccc(S(N)(=O)=O)cc3)c2)C(C)(C)C)cc1 | male Swiss albino mice, plasma | intraperitoneal, 5 mg/kg | 1800 nM
COc1cc([C@H]2Oc3ccc([C@H]4Oc5cc(O)cc(O)c5C(=O)[C@@H]4O)cc3O[C@@H]2CO)ccc1O | FVB wild-type mice, plasma | oral gavage, 500 mg/kg silymarin | 240 nM
CCN1CCN(Cc2ccc(NC(=O)c3ccc(C)c(NC(=O)c4cncc(-c5cccs5)c4)c3)cc2C(F)(F)F)CC1 | C57BL/6 mice, epithelial lining fluid | intraperitoneal, 30 mg/kg | 2470 ng/mL
CN1C[C@H](COc2nccc3c(NCc4ccco4)cc(Cl)nc23)OC1=O | C57BL/6 mice, plasma | oral, 10 mg/kg | 2500 nM
CC(C)(C)c1ccc(O)c(CN(Cc2cc(C(C)(C)C)ccc2O)C2CCC(NC(N)=O)CC2)c1 (stereo not drawn) | C57BL/6 mice, male, plasma | oral, 10 mg/kg | 1020 ng/mL
COc1cc([C@H]2Oc3cc([C@H]4Oc5cc(O)cc(O)c5C(=O)[C@@H]4O)ccc3O[C@@H]2CO)ccc1O | FVB wild-type mice, plasma | oral gavage, 500 mg/kg silymarin | 500 nM
CCc1nc(C(N)=O)c(Nc2ccc(N3CCC(N4CCN(C)CC4)CC3)c(OC)c2)nc1NC1CCOCC1 | female FVB mice, wild-type, plasma | oral, 10 mg/kg, single dose | 327 ± 33 ng/mL
Cc1c(C(=O)O)ccc2c3n(nc12)[C@@H]1[C@H](C3)N(CC2CC2)[C@@]2(C(=O)Nc3cc(Cl)ccc32)[C@H]1c1cccc(Cl)c1F | female BALB/c nude mice, SJSA-1 xenograft, plasma | oral, 1 mg/kg twice daily | 1520 nM and 1240 nM and 1480 nM and 1510 nM and 1080 nM
COc1cc(C)[nH]c(=O)c1CN1CCc2c(Cl)cc([C@H](OC)C3COC3)c(Cl)c2C1=O | female CB17 SCID mice, HT-1376 xenograft, plasma | 75 mg/kg, day 1 | 3740 ng/mL
CNC(=O)c1cc(Oc2ccc(NC(=O)Nc3ccc(Cl)c(C(F)(F)F)c3)cc2)ccn1 | female Oatp1b2(-/-) mice, DBA1/lacJ, plasma | oral, 10 mg/kg, geometric mean, added: rifampin 20 mg/kg i.v. | 5930 ng/mL
NC(=O)c1cc(Oc2ccc(NC(=O)Nc3ccc(Cl)c(C(F)(F)F)c3)c(F)c2)cc[n+]1[O-] | Oatp1b2 knockout mice, plasma | oral, 10 mg/kg regorafenib | 27.9 ± 7.17 ng/mL
CC1(C)CC[C@]2(C(=O)O)CC[C@]3(C)C(=CC[C@@H]4[C@@]5(C)C[C@@H](O)[C@H](OC(=O)/C=C/c6ccc(O)cc6)C(C)(C)[C@@H]5CC[C@]43C)[C@@H]2C1 (relative stereo) | C57BL/6 mice, brain | intraperitoneal, 85 µmol/kg single dose | 1.75 nmol/g
CCOC(=O)c1cc(Cl)cc(NC(=O)c2sc(Cl)cc2S(=O)(=O)N(C)c2ccc(OCC)c(OC)c2)c1 | male C57BL/6 mice, brain | intraperitoneal, 10 mg/kg | 10.3 ng/g
C[C@H]1[C@@H](O)O[C@@H]2O[C@@]3(C)CC[C@H]4[C@H](C)CC[C@@H]1[C@@]24OO3 | female NSG mice, plasma | oral, 60 mg/kg artesunate | 936 ng/mL
Cc1ccc(CCC(=O)Nc2nnc(S(N)(=O)=O)s2)cc1 | BALB/c mice, male, plasma | oral, 20 mg/kg, unbound | 5910 nM
C=CC(=O)N1CC2CC(n3nc(-c4ccc(C(=O)Nc5ccccn5)cc4)c4c(N)ncnc43)CC2C1 (stereo not drawn) | SCID mice, plasma | oral, 15 mg/kg twice daily | 6270 ng/mL
CCN(c1cc(-c2ccc(CN3CCOCC3)cc2)cc(C(=O)NCc2c(C)cc(C)[nH]c2=O)c1C)C1CCOCC1 | female CB17 SCID mice, HT-1376 xenograft, plasma | 75 mg/kg, day 1 | 9530 ng/mL
CO[C@H]1C[C@@H]2CC[C@@H](C)[C@@](O)(O2)C(=O)C(=O)N2CCCC[C@H]2C(=O)O[C@H]([C@H](C)C[C@@H]2CC[C@@H](OC(=O)NCCOCCOCCOCCOCCOCCOCCOCCOCCC(=O)N3CCc4cc(Cn5nc(-c6ccc7oc(N)nc7c6)c6c(N)ncnc65)ccc4C3)[C@H](OC)C2)C[C@@H](O)[C@H](C)/C=C(\C)[C@@H](O)[C@@H](OC)C(=O)[C@H](C)C[C@H](C)/C=C/C=C/C=C/1C | tumour-bearing xenograft mice, plasma | intraperitoneal, 3 mg/kg, weekly dosing | 3660 nM

Excerpt of the above:
SMILES | system | setting | Cmax
COc1cc(C)[nH]c(=O)c1CN1CCc2c(Cl)cc([C@H](OC)C3COC3)c(Cl)c2C1=O | female CB17 SCID mice, HT-1376 xenograft, plasma | 75 mg/kg, day 1 | 3740 ng/mL
